Assay results from different studies.
Each numbered part is a random draw from the data of one study; scales do not carry over between parts.

Sample 1
Target: Interferon regulatory factor 5, full length, phosphomimetic (IRF5, Homo sapiens, UniProt Q13568-2, residues 1-514, S451D/S453D/S456D/S462D)
Method: protein-binding microarray
Form: double-stranded DNA, one strand shown
Matrix: in vitro
Concentration: 940 nM top
Notes: 60-bp whole probe
With: salmon DNA 0.4 mg/ml
Relative to: random background probes
Direction: higher = stronger binding
All sequences stand within: GCCTAGCAC … GTCTTGATTCGCTTGACGCTGCTG
For `AAACCTCACAGTTTGTAAATGTGCTAG`, “fitted relative affinity” read -0.546 z-score.
Under “fitted relative affinity”, `CTAGATTTCGGGTATCGATTAGTGCTA` is recorded as 3.43 z-score.
Under “fitted relative affinity”, `TTAGGTTTCCTTTCCCTTCAGTGCTAG` is recorded as 2.1 z-score.
`GACGATATCGGGTGTCGAGACGTGCTA`: “fitted relative affinity” 0.13 z-score.
Under “fitted relative affinity”, `GACGATTTCGGTCTCGAGACGTGCTAG` is recorded as 2.65 z-score.
`TTAGAAATGGGGACTGGATTAGTGCTA` — result for “fitted relative affinity”: 0.168 z-score.
`CCTGGTTTTACTTTCTATCTGTGCTAG`: “fitted relative affinity” 2.29 z-score.
`TTAGATCTCTGTTTCGATTAGTGCTAG` — result for “fitted relative affinity”: 4.07 z-score.
Under “fitted relative affinity”, `GACGGGATCCTTTTCCTGACGTGCTAG` is recorded as -0.307 z-score.
Under “fitted relative affinity”, `TTAGGACTGTACACTGGGTTAGTGCTA` is recorded as -0.512 z-score.
Under “fitted relative affinity”, `CAGGCAGGAGAAGTGAATGAGTGCTAG` is recorded as -0.263 z-score.
`TACGGACTGGGGTATCGGGACGTGCTA` — result for “fitted relative affinity”: 0.528 z-score.
For `CATTCTCTGTTTATGTCTGGGTGCTAG`, “fitted relative affinity” read 5.19 z-score.
`TCAAGAATGGGGTTTGCAACTGTGCTA`: “fitted relative affinity” -0.184 z-score.

Sample 2
Target: Hepatocyte nuclear factor 3-alpha (Foxa1, Mus musculus, UniProt P35582, residues 1-468, full length assumed)
Method: EMSA with sequencing
Form: double-stranded DNA, one strand shown
Matrix: in vitro
Concentration: 10 and 20 nM
Notes: whole designed probe, mean of two concentrations, ends assumed
Relative to: negative control set to 0
Direction: higher = stronger binding
Target sequence (chain): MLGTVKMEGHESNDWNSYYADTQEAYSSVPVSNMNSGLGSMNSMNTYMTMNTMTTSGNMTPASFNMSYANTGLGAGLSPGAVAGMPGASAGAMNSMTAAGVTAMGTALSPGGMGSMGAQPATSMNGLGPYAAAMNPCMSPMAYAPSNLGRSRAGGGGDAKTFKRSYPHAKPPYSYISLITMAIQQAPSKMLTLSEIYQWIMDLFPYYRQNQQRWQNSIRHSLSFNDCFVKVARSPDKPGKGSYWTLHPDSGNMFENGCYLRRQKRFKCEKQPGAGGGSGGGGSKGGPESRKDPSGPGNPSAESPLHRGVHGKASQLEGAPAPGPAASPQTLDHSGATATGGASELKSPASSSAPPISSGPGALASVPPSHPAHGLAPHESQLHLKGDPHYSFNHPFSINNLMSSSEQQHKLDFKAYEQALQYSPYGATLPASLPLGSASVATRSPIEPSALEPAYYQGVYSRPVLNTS
Under “normalised bound fraction”, `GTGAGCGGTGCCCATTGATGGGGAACTCTAGAGACATTTCTTGGACAAAAGAAAAAAAACAAAGCTGAATTGTGAGAAGATGTCAGCAAAAAAGCACATCATTATTTAAATCAGGGCTAAGTAAATAAGGAGCTGGATGTGTCTGTGTTTGCTTACAACACGTAGGATCAATTCATATATTTTAAGAAGTGCACGTATGGATTGAGCTGATTTGATTAATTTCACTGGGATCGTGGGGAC` is recorded as 0.479 ratio.
For `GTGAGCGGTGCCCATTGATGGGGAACTGGCCCAGGGGTTGGGGACCCCTAATATATAATGATTCACATTATATATCAAAAGTAAATCAAAAAATTATAACTACAGCTAATTAAAAACTATGTAAACATACAGATGAAAATAAGATATTATGCAGCACTATAATTAGCTGCTGTTAAGTGATGATGTTGTAGAGAGGTTTTAATACAAATAAAACTTGGATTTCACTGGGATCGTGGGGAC`, “normalised bound fraction” read 0.478 ratio.
Under “normalised bound fraction”, `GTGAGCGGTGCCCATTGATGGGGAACAAGAAAAAAAAATACACTGCAAAACAGACTGCCTGTAGGAAATCATTTGAGTTTTTAAAAATGTGATCTCTTTGAGAGTAACCCAGTGTTTTCTTGTTTACTTATTTATTTTTTAGTTAAAATCAGGGAGCCTGATTTAAGAAGAAAAGTAGCCATTGAAAAAATAAAGTCACATGCATGCCTTTTGTCATATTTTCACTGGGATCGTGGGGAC` is recorded as 0.385 ratio.
For `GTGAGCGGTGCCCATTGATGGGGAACATCTTCCCCCTCTTCCTTGCCCCACCAGCTCACCTTCCCGGGTTATTTGCAGATAGTATTTATTTTCAAGCCGGCATTCGTTAACCCTCTTCTGGCGCAAACTGCTGTTTGCTCTGGATGAATCATGGTCCTTTGGCGACGCCAGGCTCCGGGAGAGCAAAGCACCGTGTCAGGGCCATGATCCGGGGTGGCCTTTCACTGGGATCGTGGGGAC`, “normalised bound fraction” read 0.228 ratio.
`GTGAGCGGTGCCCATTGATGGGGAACATCTTCCCCCTCTTCCTTGCCCCACCAGCTCACCTTCCCTTGTGGTTAGCAGATAGGAAAATAAATAAAGCCGGCATTCGTTAACCCTCTTCTGGCGCAAACTGCTGTTTGCTCTGGATGAATCATGGTCCTTTGGCGACGCCAGGCTCCGGGAGAGCAAAGCACCGTGTCAGGGCCATGATCCGGGGTGGCCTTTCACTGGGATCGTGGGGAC`: “normalised bound fraction” 0.322 ratio.
`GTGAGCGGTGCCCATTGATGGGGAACTCTTTCCCCTTCTATGACTTGCAAATTTATATTTCTCTTAACAACCATAAAAACAACTACAGTTGCTGAAGAAATAATGACTCAGAAAGCAAATGTTTACTTTTAAATATGAGCAACTTTACATCTAATGCCAATGCCTGATAAAGAGAAATTTATAGTAAACAAAAAATATGGCCAAAATCACTTATTTAGCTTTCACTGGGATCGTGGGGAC` — result for “normalised bound fraction”: 0.378 ratio.

Sample 3
Target: RNA binding protein fox-1 homolog 2, RRM domain, GST-SBP tag (RBFOX2, Homo sapiens, UniProt O43251-10, residues 100-194)
Method: RNA Bind-n-Seq
Form: RNA
Matrix: in vitro
Concentration: 365 nM
Notes: natural RNA segment, single round, ends assumed
Relative to: no-protein control
Direction: higher = stronger binding
Residues (chain): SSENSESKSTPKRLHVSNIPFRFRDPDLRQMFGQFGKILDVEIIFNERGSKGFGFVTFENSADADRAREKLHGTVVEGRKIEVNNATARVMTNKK
`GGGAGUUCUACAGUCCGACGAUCACUUGUCACACCUUUUGUUUCAUUCUGAGUCUUUAGUUUUAGUCAUGGGCUUUCUUCACCUGCUCUAGGUGCAAAGGCAUGUUGGGAAAGAGAUGGAUGUUGGGGAGGAAUGGAAUUCUCGGGUGCCAA`: “RBNS enrichment (R)” 1.21.
Under “RBNS enrichment (R)”, `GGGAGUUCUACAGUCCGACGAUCUGGAGCGGUGGGGACGUCAGCAGGAAACGCCAGUGCUUUGCUGCCUGAUUGACAGGAAUUUGCUGUCCUUGACACUCCACACAUUGUGUUCCUCACGUGUGGGACAGGACUGGAAUUCUCGGGUGCCAA` is recorded as 0.437.
Under “RBNS enrichment (R)”, `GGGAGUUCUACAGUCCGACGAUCAGAUAUAUUAGCACAGCCUGCCUUCUGCUGCACAACGCCUUAGAGACCCGGCCUUUCAAUGAGCUUAGCUUGUGCUCUGUUUCUGCUCUCUUAGGUCUAAACUAUGGUGUUGGAAUUCUCGGGUGCCAA` is recorded as 4.27.
Under “RBNS enrichment (R)”, `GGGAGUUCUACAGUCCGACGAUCAGGUACCCAUGCUUGAUCUGUCUUCACACCAGACCUCCUCAUAUUAAAAGGAAAAAUAAGAAAAAAAAUGUAAGAAAUCACAUGGCUAUUUAGUUUCAUGCACAGUUGCAUGGAAUUCUCGGGUGCCAA` is recorded as 1.11.
For `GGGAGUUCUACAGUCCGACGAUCGAAAUGUUAAGUGGAAAAAUAUACAGUUUGGUAAAAUAAACUAGAUUCUACAUUUAUUUGUGGGUUUUUUUCCCCUCCUUUCUUUCCACAGCACUUUUGAUAUCAAGCAAUGGAAUUCUCGGGUGCCAA`, “RBNS enrichment (R)” read 0.385.
`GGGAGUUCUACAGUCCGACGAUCGUGGUUCAUUAAUAAUGUUAGCAGCUUUUUUCUAACCAUCCUGUCUAAUGGUUAAGACACCAGUAACAAAAACACAUGAUUUGGAAAUACUUUGGCUUUUUCAUAUACCUUGGAAUUCUCGGGUGCCAA`: “RBNS enrichment (R)” 0.542.
Under “RBNS enrichment (R)”, `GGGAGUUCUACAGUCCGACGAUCUUAAAAGAGGUGGUUGGCAAUUUAGGAUUCAUCUGGGUCUGUCCUGGUAAAGUCCUGCUGUGCAGAUGACUGCUGUCUCCUGGGAAGGUCUCGGCACGGAGCUCUCGAGGUGGAAUUCUCGGGUGCCAA` is recorded as 0.341.
`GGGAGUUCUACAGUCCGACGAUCAUGUAUUUAUAUUCUAGCAUAGACUAAACUGAAUAAAAAUGCUGAUAACAGGACCUUUAGUAAGCAUACUUUAAUCAGUUUUUCUCCUUGAAUUAAUCUUUUCUCUUAAUUGGAAUUCUCGGGUGCCAA`: “RBNS enrichment (R)” 0.647.
Under “RBNS enrichment (R)”, `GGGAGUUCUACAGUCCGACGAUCAUCAUCUUCCUAGGCAGUCUCUUCCCCAAAGUCUCACCUUUUCUUCCAAUAGAAAAUUCCGCUUGACCUUUGGUGCACUGCCCACUUCCCAGCUCCACUGGCCCAAGUCUUGGAAUUCUCGGGUGCCAA` is recorded as 0.402.

Sample 4
Target: Fragile X messenger ribonucleoprotein 1, C-terminal low-complexity region (Fmr1, Mus musculus, UniProt P35922)
Method: RNA Bind-n-Seq
Form: RNA
Matrix: in vitro
Concentration: 200 nM
Notes: whole 134-nt RNA, ends assumed
With: 150 mM LiCl
Relative to: input library
Direction: higher = stronger binding
All molecules: 7-deaza-guanosine replaces G
For `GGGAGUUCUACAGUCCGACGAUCUCCUGUGCUACACAUCGUAUGUACCGAAUCGGGUUUUUUGGGUUUUUUGGUUUUUUGGGGAAAGUAUUAUGUUACGCCGUUCGGAUCUGCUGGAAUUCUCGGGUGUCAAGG`, the log2 enrichment was -1.37.
With `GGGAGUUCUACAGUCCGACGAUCUCCUGUGCUACACAUCGUAUGUACCGAAUCGGGGCCCCCCGGGCCCCCCGGCCCCCCGGAAAGUAUUAUGUUACGCCGUUCGGAUCUGCAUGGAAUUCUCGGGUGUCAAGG` the log2 enrichment was 0.523.
`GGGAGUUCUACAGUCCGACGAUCUCCUGUGCUACACAUCGUAUGUACCGAAUCGGUUUUUUUGGUUUUUUUGGGUUUUUUUGGAAAGUAUUAUGUUACGCCGUUCGGAUCUGCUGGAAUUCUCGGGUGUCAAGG` gave a log2 enrichment of -0.699.
The log2 enrichment of `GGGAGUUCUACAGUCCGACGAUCUCCUGUGCUACACAUCGUAUGUACCGAAUCGGGGAAAAAGGGGAAAAAGGGGAAAGGGGAAAGUAUUAUGUUACGCCGUUCGGAUCUGCAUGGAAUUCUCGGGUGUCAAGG` is reported as -0.266.
With `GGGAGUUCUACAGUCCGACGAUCAAGUCCUGUGCUACACAUCGUAUGUACCGAAUCGGGGAGGGGAGGGGAAAAAGGGGAAAGUAUUAUGUUACGCCGUUCGGAUCUGCACUUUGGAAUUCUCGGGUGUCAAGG` the log2 enrichment was 1.17.
The log2 enrichment of `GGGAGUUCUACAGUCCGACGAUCACCAUGCAGGUGGGCAUCUUUGGGAAGUGGGGCAAGGGGGGGAUAGGGAGGGGGGUAACACUUUGGGAACAGAAAGUCCCAGGUCGUUUCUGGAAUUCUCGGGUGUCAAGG` is reported as 1.45.
With `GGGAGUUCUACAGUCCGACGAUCUGGAGCCCAACCUGUGCCGCUCAGUCCUCAUUGCCAACACGGUCCGGCAGAUCCAAGAGGAGAUGACGCAGGAUGGGACGUGGCGCACAGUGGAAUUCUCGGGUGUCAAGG` the log2 enrichment was -2.43.
`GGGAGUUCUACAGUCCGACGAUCACCAUGCAGGUGGGCAUCUUUGGGAAGUGGGGCAAGGGGGGGAUAGGGAGUGGGGUAACACUUUGGGAACAGGUGGUCCCAGGUCGUUUCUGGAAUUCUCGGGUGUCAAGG` gave a log2 enrichment of 1.06.
`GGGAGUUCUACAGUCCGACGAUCUUUUAUUCUUCCAUCUUUUCCCACAGGUGGCAGCUGCCAACAAGAAGCAUUAGAACAAACCAUGCUGGGUUAAUAAAUUGCCUCAUUCGUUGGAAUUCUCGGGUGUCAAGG` gave a log2 enrichment of 1.49.
For `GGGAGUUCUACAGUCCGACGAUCUCAAGUCCUGUGCUACACAUCGUAUGUACCGAAUCGGGGAAAGGAAAGGGAAAGGAAAGUAUUAUGUUACGCCGUUCGGAUCUGCACUUCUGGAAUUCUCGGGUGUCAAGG`, the log2 enrichment was -0.733.
`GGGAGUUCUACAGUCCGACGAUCCCUCAAGUCCUGUGCUACACAUCGUAUGUACCGAAUCGGUGGAAAAAGGAGGAAAGUAUUAUGUUACGCCGUUCGGAUCUGCACUUCCAGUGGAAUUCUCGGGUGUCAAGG` has a log2 enrichment of 0.216.

Excerpt of the above (sample 1):
Under “fitted relative affinity”, `CTAGATTTCGGGTATCGATTAGTGCTA` is recorded as 3.43 z-score.
`GACGATATCGGGTGTCGAGACGTGCTA`: “fitted relative affinity” 0.13 z-score.
Under “fitted relative affinity”, `TTAGGACTGTACACTGGGTTAGTGCTA` is recorded as -0.512 z-score.
Under “fitted relative affinity”, `GACGATTTCGGTCTCGAGACGTGCTAG` is recorded as 2.65 z-score.
